Assay results pooled from the literature.
A part holds a random share of what one study measured.

Study 1 — method: RNA Bind-n-Seq; form: RNA; sample: in vitro; concentration: 200 nM; notes: whole 134-nt RNA, ends assumed; added: 150 mM KCl; relative to: input library; direction: higher = stronger binding
Target: Ras GTPase-activating protein-binding protein 1, full length (G3BP1, Homo sapiens, UniProt Q13283)
UniProt Q13283, sequence (whole entry, looked up): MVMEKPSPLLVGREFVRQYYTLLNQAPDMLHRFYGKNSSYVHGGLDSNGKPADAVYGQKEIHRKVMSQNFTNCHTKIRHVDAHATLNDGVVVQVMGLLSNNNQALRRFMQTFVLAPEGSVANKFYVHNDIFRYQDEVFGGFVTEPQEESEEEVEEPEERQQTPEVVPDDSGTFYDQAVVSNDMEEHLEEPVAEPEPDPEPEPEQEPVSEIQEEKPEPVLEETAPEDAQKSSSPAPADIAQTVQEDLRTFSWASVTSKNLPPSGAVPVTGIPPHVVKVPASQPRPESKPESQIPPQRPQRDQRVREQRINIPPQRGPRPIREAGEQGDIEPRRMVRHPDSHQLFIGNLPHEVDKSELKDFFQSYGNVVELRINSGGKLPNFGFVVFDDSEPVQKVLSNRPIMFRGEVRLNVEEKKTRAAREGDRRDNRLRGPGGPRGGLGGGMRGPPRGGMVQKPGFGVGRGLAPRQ
Strand	log2 enrichment
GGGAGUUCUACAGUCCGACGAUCUGGGAGGUGGAUUUUGUUUAUUUGUUUAGCUCAUUUCCAGGGGUGGGAAUUUUUUUUUAAUAUGUGUCAUGAAUAAAGUUGUUUUUGAAAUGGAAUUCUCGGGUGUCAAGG	0.155
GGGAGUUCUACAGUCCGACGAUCUCAAGUCCUGUGCUACACAUCGUAUGUACCGAAUCGGGGAAGGGGAAGGAAGGGGAAAGUAUUAUGUUACGCCGUUCGGAUCUGCACUUCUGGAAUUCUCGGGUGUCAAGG	0.463
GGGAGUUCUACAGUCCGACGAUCUAACUUUAGAGGAGGAUCUGAUGGAUAUGGCAGUGGACGUGGAUUUGGGGAUGGCUAUAAUGGGUAUGGAGGAGGACCUGUAGGUGGCAAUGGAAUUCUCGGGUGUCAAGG	0.054
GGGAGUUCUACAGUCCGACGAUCACCAUGCAGGUGGGCAUCUUUGGGAAGUGGGGCAAGGGGGGGAUAGGGAGGGGGGUAAGACUUUGGGAACAGGUGGUCCCAGGUCGUUUCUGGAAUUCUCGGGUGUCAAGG	1.25
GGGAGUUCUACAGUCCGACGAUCCAAGUCCUGUGCUACACAUCGUAUGUACCGAAUCGGGGAGGGGUUUGGGGUGGGGAAAGUAUUAUGUUACGCCGUUCGGAUCUGCACUUCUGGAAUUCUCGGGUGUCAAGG	1.52
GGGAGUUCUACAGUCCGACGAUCUCCUCAAGUCCUGUGCUACACAUCGUAUGUACCGAAUCGGGUGGUGGGUGGAAAGUAUUAUGUUACGCCGUUCGGAUCUGCACUUCCAGCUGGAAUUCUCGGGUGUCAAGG	0.04
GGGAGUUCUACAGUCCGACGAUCCACAGACAACACGCACCCACACAGACACAGAGGGAAGGGGUUGUGAUGGGGACAGGGUGCACAGCAGGGCGGGGUAGGACCCCAGCCCCUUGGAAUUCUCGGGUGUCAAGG	1.45
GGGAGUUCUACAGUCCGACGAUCACCAUGCAGGUGGGCAUCUUUGGGAAGUGGGGCAAGGGGGGGAUAGGGAGGGGGGUAACACUUUGGGAGCAGGUGGUCCCAGGUCGUUUCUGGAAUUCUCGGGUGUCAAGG	1.3
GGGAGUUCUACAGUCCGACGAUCAAGUCCUGUGCUACACAUCGUAUGUACCGAAUCGGGGAAAAGGGAAAAGGAAAAGGAAAGUAUUAUGUUACGCCGUUCGGAUCUGCACUUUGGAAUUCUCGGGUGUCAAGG	-0.723
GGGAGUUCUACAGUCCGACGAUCUCCUGUGCUACACAUCGUAUGUACCGAAUCGGGGAAAAAGGGGAGGGGAAAAAAAGGGGAAAGUAUUAUGUUACGCCGUUCGGAUCUGCAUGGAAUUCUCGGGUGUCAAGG	0.443

Study 2 — method: universal PBM; form: double-stranded DNA, one strand shown; sample: in vitro; concentration: not given; direction: higher = stronger binding
Target: Sal-like protein 4, full length isoform B (SALL4, Homo sapiens, UniProt Q9UJQ4-2, residues 1-616)
Notes: 8-mer, flanks averaged, mean of replicates
Construct (chain): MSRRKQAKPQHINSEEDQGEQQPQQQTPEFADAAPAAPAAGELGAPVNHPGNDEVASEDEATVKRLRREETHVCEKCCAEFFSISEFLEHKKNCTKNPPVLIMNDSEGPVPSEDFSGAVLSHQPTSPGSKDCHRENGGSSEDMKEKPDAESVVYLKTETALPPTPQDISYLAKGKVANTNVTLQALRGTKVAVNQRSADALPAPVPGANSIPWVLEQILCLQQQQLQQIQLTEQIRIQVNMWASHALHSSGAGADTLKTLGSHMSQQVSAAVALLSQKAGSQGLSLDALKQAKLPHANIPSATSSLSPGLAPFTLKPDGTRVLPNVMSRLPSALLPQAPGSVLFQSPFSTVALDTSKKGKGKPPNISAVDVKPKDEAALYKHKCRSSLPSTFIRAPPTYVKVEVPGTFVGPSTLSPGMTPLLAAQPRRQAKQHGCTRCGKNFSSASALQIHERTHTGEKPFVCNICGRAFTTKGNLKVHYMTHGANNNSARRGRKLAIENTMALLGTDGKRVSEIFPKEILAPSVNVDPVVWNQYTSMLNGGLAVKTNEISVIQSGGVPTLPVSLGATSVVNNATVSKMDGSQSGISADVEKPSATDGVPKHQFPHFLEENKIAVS
Strand	E-score
GACGGAAC	-0.101
CATTGTAC	0.147
AAGGCGAG	-0.215
ATCACTTA	0.231
TGAAGGCA	0.0142
CATCAGAC	-0.0259
CGCCATGA	-0.22
GAAAAATC	0.141
ACTCCTAT	0.161
GGGGCGGA	-0.201
ACGGATGC	0.0372
CACATTAA	0.187
CCCGAAAG	-0.127
ATCGATAG	0.159
CGCTCCCC	-0.378
CCATTCCG	-0.16
CAGGGTAA	0.0519
AAGGCCAA	-0.098
AGAAGTCA	0.127
TCCTCCCA	-0.0623
GTCGAATA	0.178
CAACATCA	0.176
CATGTCCG	-0.305
CCCACGAC	-0.271
CCAACCAC	0.00686

Study 3 — method: EMSA with sequencing; form: double-stranded DNA, one strand shown; sample: in vitro; concentration: 10 and 20 nM; relative to: negative control set to 0; direction: higher = stronger binding
Target: Hepatocyte nuclear factor 3-alpha (Foxa1, Mus musculus, UniProt P35582, residues 1-468, full length assumed)
UniProt P35582, sequence (whole entry, looked up): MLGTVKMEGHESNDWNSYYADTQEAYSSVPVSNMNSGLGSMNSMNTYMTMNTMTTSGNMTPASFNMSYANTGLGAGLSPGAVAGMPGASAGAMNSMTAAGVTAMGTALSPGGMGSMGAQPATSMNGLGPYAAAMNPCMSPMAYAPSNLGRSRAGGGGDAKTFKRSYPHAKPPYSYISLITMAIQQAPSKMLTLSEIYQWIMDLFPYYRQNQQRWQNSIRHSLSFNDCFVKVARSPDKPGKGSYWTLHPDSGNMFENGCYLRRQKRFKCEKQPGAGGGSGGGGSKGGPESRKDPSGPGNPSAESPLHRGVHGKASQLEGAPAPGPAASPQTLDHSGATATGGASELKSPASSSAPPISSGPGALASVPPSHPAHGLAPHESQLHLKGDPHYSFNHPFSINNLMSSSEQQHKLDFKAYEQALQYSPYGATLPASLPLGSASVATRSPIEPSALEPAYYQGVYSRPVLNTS
Notes: whole designed probe, mean of two concentrations, ends assumed
Strand	normalised bound fraction [ratio]
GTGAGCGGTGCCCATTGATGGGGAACAGGTTGTCTGGACAAAAGTTGTATCTACCAAACTAAATGTGTACCAAGTGAGATATCCAAGGTCACTTAGCAAACATTCTGTTAGGGATAATGTAAACATGAAAAGAAATTTAAGGATTTTTTTTTTTAAGACTGTTTTTGGAAACAACCAAGAGGAGAGACAAAAGGCACTTCAGTGAGGACTTTAAGCCAGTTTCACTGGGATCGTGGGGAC	0.374
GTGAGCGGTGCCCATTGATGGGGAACCATACAAGAAAATAACTGTAGGCACAACTGGCACAATTATATTAGTAATAATGATGGGATAAAAATATAAAGATGCATATGTAAATTGATCTGTGTAAACATGAATATAGTATTTGCCAAGTGACATAGACAAATATATTAAATAATATACTTTTGAATATTGGTATCAGAATCATAAAATCTTTAAAAATCATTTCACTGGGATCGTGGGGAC	0.463
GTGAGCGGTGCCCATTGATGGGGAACGAGCTGCTTGCAATTGAGTTGTATGTATGCTTCCACTTAATACGTCCTGCCGAGCCTGTAAGCCAACACTTCCGGCCAGGAATCTGCCCTCTGTGTTTACCTACTCTCTTTTTATGTCTTATTCCCAGAATGACTGGGGACCAAAGGAATCCTTTGCAGGAGTTTTCTCCAGACAGACAGTTCCACATGCTAGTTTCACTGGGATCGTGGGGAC	0.253
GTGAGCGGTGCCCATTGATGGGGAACAAGGCATCCCATAGATGATGGTTACAAATCAGCACAGGATTAAAATAGTGCCCCCAACACATTAAAAGCTGACTCTGCTGGGTGTGGCTTAAGTAATCTTCTCGTCTCAACTGGACAGCTACCCAGTAACACAGCCACAGAAACCGAAAATATGTGAGTACATAAGTAAAGTGCTTCTTTTGGAGGGGGTGGGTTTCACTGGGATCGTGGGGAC	-0.0311
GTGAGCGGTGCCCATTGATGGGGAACATTTGTGTTACTTCCTAATTTGGGCAATTATACAATTGCTGTGAACATCTGAGTATAGGTTTTCATGTAAACAGAATTTTTCTTTCATCTAGGGTAAATACCTAAGTGTGGAGTTGCTGAGTCATATGATAAATGTATGGTTAATAGTATAAGAAGCTGCCAAACTTTTGTGCATAGTGGACAGACCGTTTTATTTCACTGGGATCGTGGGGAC	0.101
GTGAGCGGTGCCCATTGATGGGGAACTTTACTTCTTATATTTCACTCTGGGTTGACCCTAGGGAACATAAAACCAGATTCTACTGATCTTCCCTTATCAGATGTTTGGTTTTCTCTAAGCAAACATCTATCTGGGGAGCATGACAGGGTCATGACAGATTTCCCAGTGGGGACTGTGGAGACTGGCTGGAAGGCTATGAGTGAGTGAGCTGACATCCACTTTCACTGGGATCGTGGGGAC	0.301
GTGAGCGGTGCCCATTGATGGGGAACACTTTAATTACGATCATTTGGCTTCCACCTGCCTGAACCCGATACCTTACACGGGAACCTGTATGATGTGAGTTTACCAGATTGATCTTTCTTGTTTACTTTTGGAGACAGTTCTCTTGGGAGAAGTGGTGTCCATCCTATTTAATAAAGTAAGTTTTACTTTATCTAATTCTGGCTTGTTTTCTTAAACACCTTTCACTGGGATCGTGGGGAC	0.447
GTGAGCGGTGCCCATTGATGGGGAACATCCACGAACCTGGCCCTGTCTGGTAACCACAGTGAACCATCGCAAGATACAGCACTATGTGCCCAGTTGGGCTGGTAATGTCACACAAATGTGTCAACACTGGCACATAATGACTCACACGGAAGTGTACTTGTTTTTGGAGAGGGACTAGACCTTCATCCTTGAGGTGAAGAAGATTTTCTCTCCAGGGTGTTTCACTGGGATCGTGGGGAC	0.0657

Study 4 — method: protein binding microarray; form: double-stranded DNA, one strand shown; sample: in vitro; concentration: not given; relative to: not given; direction: higher = stronger binding
Target: Histone acetyltransferase KAT6A, winged helix 2, GST fusion (KAT6A, Homo sapiens, UniProt Q92794, residues 85-181)
Notes: 8-mer, flanks averaged, mean of 2 arrays, mostly near background
Construct (chain): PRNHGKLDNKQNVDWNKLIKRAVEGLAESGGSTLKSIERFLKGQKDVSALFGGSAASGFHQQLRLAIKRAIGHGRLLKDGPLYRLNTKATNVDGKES
Strand	E-score
CGTGCAAA	0.158
AGCTGCCC	0.189
ATACCGGC	0.0774
ATACTGTA	-0.174
GGGTACGA	0.022
ATATTGAT	0.113
ACGCCGTC	0.0992
ACTGTATA	-0.153
AACTGGAT	0.0638
TATAGCGA	-0.135
ATCTGAAA	0.0992
CATATGTA	-0.121
CTTCGCTA	0.0647
ACGACACT	-0.0643
TACGCTGA	-0.00781
ACCGGTCG	0.112
AAGTGCCT	-0.0902
CCCGTATA	0.023
CATAGTCA	0.00894
GTAATCTA	0.0456

For quick reference, copied from above (study 4):
Strand	E-score
ATACTGTA	-0.174
CTTCGCTA	0.0647
GGGTACGA	0.022
TATAGCGA	-0.135
ACGACACT	-0.0643
AGCTGCCC	0.189
ACTGTATA	-0.153
